Results gathered from unrelated publications.
Lines come from different studies, so protocols differ.
Organism: Acinetobacter baumannii

SMILES | test | system | conditions | how to read | MIC
CC[C@H](C)[C@H](NC(=O)CN)C(=O)NCC(=O)N[C@@H](C)C(=O)N[C@H](C(=O)N[C@@H](CC(C)C)C(=O)N[C@@H](CCCCN)C(=O)N[C@H](C(=O)N[C@@H](CC(C)C)C(=O)N[C@H](C(=O)N[C@H](C(=O)NCC(=O)N[C@@H](CC(C)C)C(=O)N1CCC[C@H]1C(=O)N[C@@H](C)C(=O)N[C@@H](CC(C)C)C(=O)N[C@H](C(=O)N[C@@H](CO)C(=O)N[C@@H](Cc1c[nH]c2ccccc12)C(=O)N[C@H](C(=O)N[C@@H](CCCCN)C(=O)N[C@@H](CCCNC(=N)N)C(=O)N[C@@H](CCCCN)C(=O)N[C@@H](CCCNC(=N)N)C(=O)N[C@@H](CCC(N)=O)C(=O)N[C@@H](CCC(N)=O)C(N)=O)[C@@H](C)CC)[C@@H](C)CC)[C@@H](C)O)[C@@H](C)O)C(C)C)C(C)C | – | CCARM 12004 carbapenem-resistant | – | – | 8 µM
CC[C@H](C)[C@H](NC(=O)[C@H](CC(C)C)NC(=O)[C@H](CCCNC(=N)N)NC(=O)[C@@H](N)CCCNC(=N)N)C(=O)N[C@@H](CCCNC(=N)N)C(=O)N[C@H](C(=O)N[C@@H](CC(C)C)C(=O)N[C@H](C(=O)NCC(=O)N1CCC[C@H]1C(=O)N[C@H](C(=O)N[C@H](C(=O)N[C@@H](Cc1ccc(O)cc1)C(=O)N[C@@H](CC(C)C)C(=O)N[C@@H](Cc1ccc(O)cc1)C(=O)N[C@@H](Cc1ccccc1)C(=O)N[C@@H](CCCCN)C(=O)N[C@@H](CC(C)C)C(=O)N[C@@H](CCC(N)=O)C(=O)N[C@@H](CC(C)C)C(=O)N[C@@H](CC(C)C)C(=O)N[C@@H](CCCCN)C(=O)N[C@@H](CCCCN)C(N)=O)[C@@H](C)CC)[C@@H](C)CC)[C@@H](C)O)[C@@H](C)O | – | KCCM 40203, Mueller-Hinton broth | 24 h | – | 32 µM
CC[C@H](C)[C@H](NC(=O)CNC(=O)[C@H](CC(=O)O)NC(=O)[C@H](CCCNC(=N)N)NC(=O)[C@@H](NC(=O)[C@H](CC(N)=O)NC(=O)[C@H](CCCNC(=N)N)NC(=O)CNC(=O)[C@@H](NC(=O)[C@H](CCCCN)NC(=O)[C@H](CCC(=O)O)NC(=O)[C@@H](NC(=O)[C@H](CCCCN)NC(=O)[C@H](CCCCN)NC(=O)[C@H](Cc1ccccc1)NC(=O)[C@@H](NC(=O)[C@H](CCCCN)NC(=O)[C@H](Cc1c[nH]c2ccccc12)NC(=O)[C@@H](N)CCCNC(=N)N)[C@@H](C)CC)[C@@H](C)CC)C(C)C)C(C)C)C(=O)N[C@H](C(=O)N[C@@H](CCCCN)C(=O)N[C@@H](C)C(=O)NCC(=O)NCC(=O)N[C@@H](C)C(=O)N[C@H](C(=O)N[C@@H](C)C(=O)N[C@H](C(=O)N[C@H](C(=O)NCC(=O)N[C@@H](CCC(N)=O)C(=O)N[C@@H](C)C(=O)N[C@@H](C)C(=O)N[C@H](C(=O)N[C@H](C(=O)N[C@H](C(=O)N[C@@H](CCCCN)C(N)=O)C(C)C)C(C)C)[C@@H](C)O)C(C)C)C(C)C)C(C)C)[C@@H](C)CC | – | KCCM 40203, Mueller-Hinton broth | 16 h, 37 °C | growth inhibition over 99% | 2 µM
CCN1CCN(C(=O)N[C@@H](C(=O)N[C@@H]2C(=O)N3[C@@H]2SC(C)(C)[C@@H]3C(=O)O)c2ccccc2)C(=O)C1=O | – | carbapenem-resistant clinical isolate | – | – | > 64 µg/mL
CS(=O)(=O)Nc1ncn(-c2cc(F)c(COc3ccc(OS(=O)(=O)F)cc3)c(F)c2)n1 | – | – | – | – | 25 µM
CC(=O)N[C@@H](CC(C)C)C(=O)N[C@@H](CCCCN)C(=O)N[C@@H](CC(C)C)C(=O)N[C@@H](CC(C)C)C(=O)N[C@@H](CCCCN)C(=O)N[C@@H](CCCCN)C(=O)N1CCC[C@H]1C(=O)N[C@@H](CC(C)C)C(=O)N[C@@H](CCCCN)C(=O)N[C@@H](CC(C)C)C(=O)N[C@@H](CC(C)C)C(=O)N[C@@H](CCCCN)C(N)=O | broth microdilution | ATCC 17978 | 18 h, 37 °C, compound alone | – | > 80 µM
CN1C(=O)Cc2ccc(F)c(CCNCC[C@H]3CN(c4ccc5c(n4)NC(=O)CO5)C(=O)O3)c21 | – | ATCC 19606 | – | – | 0.06 µg/mL
CC[C@H](C)[C@H](NC(=O)[C@H](CC(C)C)NC(=O)[C@H](CCCNC(=N)N)NC(=O)[C@@H](N)CCCNC(=N)N)C(=O)N[C@@H](CCCNC(=N)N)C(=O)N[C@@H](CCCCN)C(=O)N[C@@H](CC(C)C)C(=O)N[C@@H](CCCCN)C(=O)NCC(=O)N[C@@H](CC(C)C)C(=O)N[C@@H](CCCCN)C(=O)N[C@@H](CCCCN)C(=O)N[C@@H](Cc1ccc(O)cc1)C(=O)N[C@@H](CC(C)C)C(=O)N[C@@H](Cc1ccc(O)cc1)C(=O)N[C@@H](Cc1ccccc1)C(=O)N[C@@H](CCCCN)C(=O)N[C@@H](CC(C)C)C(=O)N[C@@H](CCC(N)=O)C(=O)N[C@@H](CC(C)C)C(=O)N[C@@H](CC(C)C)C(=O)N[C@@H](CCCCN)C(=O)N[C@@H](CCCCN)C(N)=O | – | ATCC BAA1605, Mueller-Hinton broth | 24 h | – | 2 µM
C[C@@H](O)[C@H]1C(=O)N2C(C(=O)O)=C(SCCN=CN)C[C@H]12 | – | CCARM 12004 carbapenem-resistant, Mueller-Hinton broth | 16 h, 37 °C | – | 128 µM
CC[C@H](C)[C@H](NC(=O)[C@H](C)NC(=O)[C@H](CCCNC(=N)N)NC(=O)[C@H](CCCNC(=N)N)NC(=O)[C@H](CCCNC(=N)N)NC(=O)[C@H](CCCNC(=N)N)NC(=O)[C@H](CCCNC(=N)N)NC(=O)[C@@H](N)CCCNC(=N)N)C(=O)N[C@@H](CO)C(=O)NCC(=O)N[C@@H](CO)C(=O)N[C@@H](CC(C)C)C(=O)N[C@H](C(=O)N[C@H](C(=O)N[C@@H](CC(C)C)C(=O)N[C@@H](Cc1ccccc1)C(=O)NCC(=O)N[C@@H](Cc1ccc(O)cc1)C(N)=O)[C@@H](C)O)C(C)C | broth microdilution | ATCC 17978 | highest value reported | – | 2 µM

Repeated from above:
SMILES | test | system | conditions | how to read | MIC
CC(=O)N[C@@H](CC(C)C)C(=O)N[C@@H](CCCCN)C(=O)N[C@@H](CC(C)C)C(=O)N[C@@H](CC(C)C)C(=O)N[C@@H](CCCCN)C(=O)N[C@@H](CCCCN)C(=O)N1CCC[C@H]1C(=O)N[C@@H](CC(C)C)C(=O)N[C@@H](CCCCN)C(=O)N[C@@H](CC(C)C)C(=O)N[C@@H](CC(C)C)C(=O)N[C@@H](CCCCN)C(N)=O | broth microdilution | ATCC 17978 | 18 h, 37 °C, compound alone | – | > 80 µM
CN1C(=O)Cc2ccc(F)c(CCNCC[C@H]3CN(c4ccc5c(n4)NC(=O)CO5)C(=O)O3)c21 | – | ATCC 19606 | – | – | 0.06 µg/mL
